Measured values of several laboratories.
Compare with care: the assays were run in different laboratories. “And” joins repeats or separate records; there may be more than shown. Numbers after ± are the reported error.
VRK2: Serine/threonine-protein kinase VRK2 (VRK2, Homo sapiens, UniProt Q86Y07)
Chain of UniProt Q86Y07 (whole entry, looked up): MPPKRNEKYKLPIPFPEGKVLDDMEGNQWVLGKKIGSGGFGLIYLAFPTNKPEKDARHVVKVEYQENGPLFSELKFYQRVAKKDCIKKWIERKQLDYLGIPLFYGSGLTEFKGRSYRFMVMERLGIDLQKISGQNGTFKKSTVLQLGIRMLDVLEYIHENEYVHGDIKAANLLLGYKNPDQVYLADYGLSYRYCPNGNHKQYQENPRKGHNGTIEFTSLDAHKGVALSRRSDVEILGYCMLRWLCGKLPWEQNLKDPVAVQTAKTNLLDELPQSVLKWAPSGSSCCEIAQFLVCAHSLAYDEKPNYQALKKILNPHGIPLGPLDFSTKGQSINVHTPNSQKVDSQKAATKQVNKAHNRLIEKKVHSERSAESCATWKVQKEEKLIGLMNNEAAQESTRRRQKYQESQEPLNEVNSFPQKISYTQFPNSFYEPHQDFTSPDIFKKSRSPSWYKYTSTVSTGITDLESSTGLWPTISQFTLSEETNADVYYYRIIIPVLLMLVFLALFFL
MT-CYB/UQCRFS1: MT-CYB/UQCRFS1 (Homo sapiens, UniProt P00156+P47985)
Chain of UniProt P00156 (whole entry, looked up): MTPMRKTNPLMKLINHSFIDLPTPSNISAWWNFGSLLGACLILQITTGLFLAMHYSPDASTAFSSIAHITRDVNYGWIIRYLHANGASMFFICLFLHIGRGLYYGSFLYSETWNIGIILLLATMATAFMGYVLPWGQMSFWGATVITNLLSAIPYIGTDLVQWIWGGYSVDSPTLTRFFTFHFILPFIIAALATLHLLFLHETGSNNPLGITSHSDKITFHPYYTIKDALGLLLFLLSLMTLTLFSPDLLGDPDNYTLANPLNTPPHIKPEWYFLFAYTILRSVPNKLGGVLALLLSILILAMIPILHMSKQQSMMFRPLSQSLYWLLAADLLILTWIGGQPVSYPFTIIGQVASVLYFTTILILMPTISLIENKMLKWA
Chain of UniProt P47985 (whole entry, looked up): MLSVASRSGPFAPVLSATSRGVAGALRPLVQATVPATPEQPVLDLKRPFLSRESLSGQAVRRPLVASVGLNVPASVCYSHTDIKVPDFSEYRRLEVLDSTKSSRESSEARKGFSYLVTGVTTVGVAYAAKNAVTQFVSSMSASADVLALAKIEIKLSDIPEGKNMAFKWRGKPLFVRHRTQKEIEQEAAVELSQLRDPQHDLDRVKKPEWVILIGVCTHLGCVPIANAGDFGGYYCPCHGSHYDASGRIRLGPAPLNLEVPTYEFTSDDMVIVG
KEAP1 Kelch domain: Kelch-like ECH-associated protein 1, Kelch domain (KEAP1, Homo sapiens, UniProt Q14145)
Chain of UniProt Q14145 (whole entry, looked up): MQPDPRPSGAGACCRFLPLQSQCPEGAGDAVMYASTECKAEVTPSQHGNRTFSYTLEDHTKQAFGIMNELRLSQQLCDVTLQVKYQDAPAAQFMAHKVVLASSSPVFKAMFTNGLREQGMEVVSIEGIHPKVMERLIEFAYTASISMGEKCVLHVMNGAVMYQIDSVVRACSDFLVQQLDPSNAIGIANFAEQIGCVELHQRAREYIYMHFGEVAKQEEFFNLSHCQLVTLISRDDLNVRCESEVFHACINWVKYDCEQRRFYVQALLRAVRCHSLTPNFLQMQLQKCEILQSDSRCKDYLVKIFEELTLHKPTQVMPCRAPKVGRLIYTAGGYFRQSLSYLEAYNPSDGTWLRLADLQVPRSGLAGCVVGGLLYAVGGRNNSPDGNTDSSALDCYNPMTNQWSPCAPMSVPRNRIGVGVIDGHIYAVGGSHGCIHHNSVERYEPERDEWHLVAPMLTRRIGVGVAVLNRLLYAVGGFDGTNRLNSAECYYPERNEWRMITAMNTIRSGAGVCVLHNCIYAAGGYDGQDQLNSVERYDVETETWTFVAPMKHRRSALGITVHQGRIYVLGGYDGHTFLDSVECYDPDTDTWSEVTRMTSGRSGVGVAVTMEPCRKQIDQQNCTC
Dehaloperoxidase B ferric: Dehaloperoxidase B, ferric (Amphitrite ornata, UniProt Q9NAV7)
Protein lin-28 homolog A: Protein lin-28 homolog A (Mus musculus, UniProt Q8K3Y3)
Chain of UniProt Q8K3Y3 (whole entry, looked up): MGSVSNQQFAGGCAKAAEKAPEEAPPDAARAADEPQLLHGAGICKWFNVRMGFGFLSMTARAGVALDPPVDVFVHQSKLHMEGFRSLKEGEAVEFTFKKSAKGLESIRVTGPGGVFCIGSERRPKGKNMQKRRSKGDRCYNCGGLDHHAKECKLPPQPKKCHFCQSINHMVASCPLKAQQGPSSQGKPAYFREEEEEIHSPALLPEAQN
TOP2A: DNA topoisomerase 2-alpha (TOP2A, Homo sapiens, UniProt P11388)
Chain of UniProt P11388 (whole entry, looked up): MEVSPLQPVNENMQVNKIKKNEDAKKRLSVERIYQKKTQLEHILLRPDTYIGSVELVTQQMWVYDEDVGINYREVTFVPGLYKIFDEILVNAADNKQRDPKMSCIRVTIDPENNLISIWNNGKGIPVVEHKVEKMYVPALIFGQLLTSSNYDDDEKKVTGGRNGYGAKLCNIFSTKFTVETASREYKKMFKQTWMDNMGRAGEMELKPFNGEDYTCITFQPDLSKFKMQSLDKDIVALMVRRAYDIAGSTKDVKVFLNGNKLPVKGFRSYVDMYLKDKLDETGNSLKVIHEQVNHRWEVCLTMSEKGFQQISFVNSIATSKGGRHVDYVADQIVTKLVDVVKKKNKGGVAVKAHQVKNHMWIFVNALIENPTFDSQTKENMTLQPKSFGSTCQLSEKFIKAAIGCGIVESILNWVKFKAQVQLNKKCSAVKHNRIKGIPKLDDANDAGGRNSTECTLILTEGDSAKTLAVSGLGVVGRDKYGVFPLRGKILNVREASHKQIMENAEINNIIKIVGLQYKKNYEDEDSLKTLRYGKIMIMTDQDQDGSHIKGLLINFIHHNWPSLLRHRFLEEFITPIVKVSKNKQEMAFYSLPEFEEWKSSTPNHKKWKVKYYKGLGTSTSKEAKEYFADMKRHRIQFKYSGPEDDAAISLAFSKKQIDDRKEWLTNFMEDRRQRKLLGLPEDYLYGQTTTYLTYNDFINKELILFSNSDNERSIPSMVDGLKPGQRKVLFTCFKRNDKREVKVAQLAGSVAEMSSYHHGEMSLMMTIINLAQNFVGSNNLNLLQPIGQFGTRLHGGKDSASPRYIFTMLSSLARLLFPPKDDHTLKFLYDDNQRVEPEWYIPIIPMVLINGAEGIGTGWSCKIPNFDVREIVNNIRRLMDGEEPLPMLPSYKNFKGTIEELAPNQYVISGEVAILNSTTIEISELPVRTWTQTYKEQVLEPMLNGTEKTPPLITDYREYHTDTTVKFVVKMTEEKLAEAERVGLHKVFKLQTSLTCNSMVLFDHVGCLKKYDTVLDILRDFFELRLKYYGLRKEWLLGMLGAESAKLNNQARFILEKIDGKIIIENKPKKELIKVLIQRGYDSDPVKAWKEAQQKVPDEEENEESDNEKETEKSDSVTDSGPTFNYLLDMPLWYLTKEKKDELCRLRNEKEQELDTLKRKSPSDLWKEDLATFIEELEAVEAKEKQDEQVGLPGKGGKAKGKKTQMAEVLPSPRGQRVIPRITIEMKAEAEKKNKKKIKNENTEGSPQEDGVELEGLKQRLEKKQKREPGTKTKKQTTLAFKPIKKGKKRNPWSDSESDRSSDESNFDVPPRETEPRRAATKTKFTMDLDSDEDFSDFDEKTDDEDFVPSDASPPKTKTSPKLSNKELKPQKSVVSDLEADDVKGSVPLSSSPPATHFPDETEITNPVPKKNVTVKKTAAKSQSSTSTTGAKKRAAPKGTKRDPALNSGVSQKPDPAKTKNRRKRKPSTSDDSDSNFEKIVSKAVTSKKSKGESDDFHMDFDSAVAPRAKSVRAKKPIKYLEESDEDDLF
T1: RNA aptamer; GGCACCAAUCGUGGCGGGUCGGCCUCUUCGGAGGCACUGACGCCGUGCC
Chain of UniProt Q64663 (whole entry, unmodified, looked up): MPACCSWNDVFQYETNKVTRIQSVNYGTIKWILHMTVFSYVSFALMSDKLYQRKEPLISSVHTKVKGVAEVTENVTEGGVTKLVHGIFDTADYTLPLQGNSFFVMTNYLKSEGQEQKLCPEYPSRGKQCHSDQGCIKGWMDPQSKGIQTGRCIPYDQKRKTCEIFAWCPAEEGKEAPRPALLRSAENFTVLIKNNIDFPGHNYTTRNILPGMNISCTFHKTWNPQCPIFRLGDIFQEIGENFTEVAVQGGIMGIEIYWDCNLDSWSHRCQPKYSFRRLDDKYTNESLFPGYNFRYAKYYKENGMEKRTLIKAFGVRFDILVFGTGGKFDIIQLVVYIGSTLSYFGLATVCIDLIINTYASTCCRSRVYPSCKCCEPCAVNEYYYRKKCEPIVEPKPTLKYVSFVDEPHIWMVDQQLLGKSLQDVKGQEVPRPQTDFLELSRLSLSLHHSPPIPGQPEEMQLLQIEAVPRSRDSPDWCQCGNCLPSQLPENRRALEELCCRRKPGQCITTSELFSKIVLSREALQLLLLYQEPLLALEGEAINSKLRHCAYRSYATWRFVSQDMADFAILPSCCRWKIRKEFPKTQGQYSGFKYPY
Chain of UniProt P04406 (whole entry, looked up): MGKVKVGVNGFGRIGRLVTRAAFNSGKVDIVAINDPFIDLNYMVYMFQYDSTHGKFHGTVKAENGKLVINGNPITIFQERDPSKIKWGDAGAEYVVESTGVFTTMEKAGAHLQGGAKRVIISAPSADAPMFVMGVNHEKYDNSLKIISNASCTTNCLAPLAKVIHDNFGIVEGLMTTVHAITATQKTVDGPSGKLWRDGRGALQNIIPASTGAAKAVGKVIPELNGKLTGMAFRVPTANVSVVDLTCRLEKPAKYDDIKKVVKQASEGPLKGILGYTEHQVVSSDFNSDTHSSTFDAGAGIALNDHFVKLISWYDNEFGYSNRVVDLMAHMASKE
Chain of UniProt P51575 (whole entry, unmodified, looked up): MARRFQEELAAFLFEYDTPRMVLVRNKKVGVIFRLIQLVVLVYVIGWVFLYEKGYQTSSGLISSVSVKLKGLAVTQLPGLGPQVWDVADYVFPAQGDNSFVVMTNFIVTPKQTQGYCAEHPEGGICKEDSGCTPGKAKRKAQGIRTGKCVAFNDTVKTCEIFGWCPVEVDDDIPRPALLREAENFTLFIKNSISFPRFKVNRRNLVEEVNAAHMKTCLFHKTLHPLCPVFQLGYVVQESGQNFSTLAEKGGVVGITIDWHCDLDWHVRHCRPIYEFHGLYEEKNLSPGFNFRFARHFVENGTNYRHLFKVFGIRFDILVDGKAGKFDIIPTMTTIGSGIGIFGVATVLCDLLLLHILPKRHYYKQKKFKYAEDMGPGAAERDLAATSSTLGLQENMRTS

`O=C(COP(=O)(O)O)[C@@H](O)[C@H](O)[C@H](O)COP(=O)(O)O` — result for “thermal stability ratio”: 3.83 and 3.91 and 3.39 (GAPDH (Homo sapiens, UniProt P04406); thermal proteome profiling; HepG2 cell lysate; concentration not given, 57 over 37 °C; reference: compound over control).
For `CCNc1ccc(C(N)=O)cn1`, activity class read “inactive” (NNMT (Homo sapiens, UniProt P40261); concentration not given).
The cooperativity factor of `Oc1ccc(/C=C/c2cc(O)cc(O)c2)cc1` is reported as 0.63 (O-methyltransferase (Sorghum bicolor, UniProt A0A1B6PFV1); with: adenine 1 mM).
`COc1cc(-c2cncc3c2CN(C)Cc2cc(N4CCNCC4)ccc2-3)cc(OC)c1OC` gave a remaining activity of 101% (VRK2; kinase activity; 1 µM, human enzyme, with: ATP 10 µM; reference: DMSO control).
`CN(CCO)c1ccc(/C=C(\C#N)c2ccc(C#N)cc2)cc1` gave a Kd of 0.205 µM (T1, RNA aptamer; fluorescence titration, Hill fit; apparent).
`NC(=O)NOCCCCCCCCCCCCCCCCCCCC[P+](c1ccccc1)(c1ccccc1)c1ccccc1.O=C([O-])C(F)(F)F`: “oxygen consumption rate” 108% (MT-CYB/UQCRFS1; complex III-dependent respiration, Seahorse XF96; HCT-116; 0.3 µM, 24 h; reference: control).
`O=C(Nc1cccc2c(=O)cc(-c3nnn[nH]3)oc12)c1ccc(OCCCCc2ccccc2)cc1` gave a Hill coefficient of 0.74 (LRRC8A/LRRC8C (Homo sapiens, UniProt Q8IWT6+Q8TDW0); ion current, inhibitor, whole-cell patch clamp; HCT116 LRRC8 knockout, transfected; +100 mV, LRRC8A/LRRC8C heteromer).
The TΔS of `CC(=O)N[C@@H](CO)C(=O)N[C@@H](CC(C)C)C(=O)N[C@@H](CCC(=O)O)C(=O)N[C@@H](CCC(=O)O)C(=O)N1CCC[C@H]1C(=O)N[C@@H](Cc1c[nH]cn1)C(=O)N[C@@H](CO)C(=O)N1CCC[C@H]1C(=O)N[C@@H](CCC(=O)O)C(=O)N[C@H](C(=O)NCC(=O)N[C@@H](CCC(=O)O)C(=O)N[C@@H](CCCCN)C(=O)N[C@H](C(=O)N[C@H](C(=O)N[C@@H](C)C(=O)NCC(=O)N[C@@H](CCC(=O)O)C(=O)N[C@H](C(=O)N[C@@H](CC(N)=O)C(N)=O)C(C)C)C(C)C)C(C)C)[C@@H](C)O` is reported as -9.18 kcal/mol (KEAP1 Kelch domain; binding, ITC; pH 7, 298.15 K).
`CO[C@H]1O[C@H](COS(=O)(=O)O)[C@@H](O[C@@H]2O[C@@H](C(=O)O)[C@@H](O[C@H]3O[C@H](COS(=O)(=O)O)[C@@H](O[C@@H]4O[C@H](C(=O)O)[C@@H](O[C@H]5O[C@H](COS(=O)(=O)O)[C@@H](O)[C@H](O)[C@H]5NS(=O)(=O)O)[C@H](O)[C@H]4O)[C@H](OS(=O)(=O)O)[C@H]3NS(=O)(=O)O)[C@H](O)[C@H]2OS(=O)(=O)O)[C@H](O)[C@H]1NS(=O)(=O)O` — result for “salt-independent binding energy share”: 63% (Beta-2-glycoprotein 1, domain V (APOH, Homo sapiens, UniProt P02749, V266L); isothermal titration calorimetry; with: 150 mM NaCl; reference: total free energy).
`NC(=O)NOCCCCCCCCCCCCCCCC[P+](c1ccccc1)(c1ccccc1)c1ccccc1.O=C([O-])C(F)(F)F` — result for “oxygen consumption rate”: 79.4% (MT-CYB/UQCRFS1; complex III-dependent respiration, Seahorse XF96; HCT-116; 0.5 µM, 24 h; reference: control).
`COc1cc(O)c2c(c1)oc(=O)c1c3cc(O)c(O)cc3oc21` gave a ΔS of -318 J/(mol·K) (MAL12 (Saccharomyces cerevisiae S288c, UniProt P53341); fluorescence quenching; 310 K).
Under “oxygen consumption rate”, `NC(=O)NOCCCCCCCCCC[P+](c1ccccc1)(c1ccccc1)c1ccccc1.O=C([O-])C(F)(F)F` is recorded as 79.5 ± 7.75% (MT-CYB/UQCRFS1; complex III-dependent respiration, Seahorse XF96; HCT-116; 10 µM, 24 h; reference: control).
`C=CC(=O)N1CCC(COCC(=O)N2CCN(c3nc(-c4cnc(N)nc4C(F)F)nc(N4CCOC[C@@H]4C)n3)CC2)CC1` has a remaining binding of 65% (TRPM6 (Homo sapiens, UniProt Q9BX84); KINOMEscan; 1 µM).
For `Nc1ncnc2c1ncn2[C@@H]1O[C@H](CO[P@](=O)(O)O[P@](=O)(O)O[P@@](=O)(O)S)[C@@H](O)[C@H]1O`, the ΔH was -0.175 kcal/mol (GUK1 (Homo sapiens, UniProt Q16774); binding, isothermal titration calorimetry; molar ratio 3.736, fitted curve).
For `CN1CCN(c2cc(-c3ccncc3)c(-c3ccc4ccccc4c3)nn2)CC1`, the activation was -0.3% (TSHR (Homo sapiens, UniProt P16473); agonist, FLIPR; 12.5 µM).
For `Cc1cc(C(=O)Nc2ccc(Cl)cc2Cl)no1`, the Km was 370 µM (esterase, rabbit liver; substrate, HPLC-UV; pH 7.25, 25 °C).
`Cc1cc(Nc2cc(N3CCN(C)CC3)nc(Sc3ccc(NC(=O)C4CC4)cc3)n2)[nH]n1` has a remaining activity of 98% (VRK2; kinase activity, KinaseProfiler; 0.03 µM, species human; reference: control).
Under “loss of binding free energy”, `CCCCOc1cc(C(=O)NCCN(CC)CC)c2ccccc2n1` is recorded as 5.3 kcal/mol (PKD2L1 (Homo sapiens, UniProt Q9P0L9, F549I)).
`O=C1Nc2ccc(Br)cc2C1=O`: “share of total products” 4.5% (Dehaloperoxidase B ferric; product, HPLC; with: 5-bromoindole 500 µM, H2O2 1000 µM).
With `O=C(CSc1n[nH]c(-c2ccccc2Cl)n1)c1ccc(O)c(O)c1` the Hill slope was -1.1 (Protein lin-28 homolog A).
The Hill coefficient of `Nc1nc2c(ncn2[C@@H]2O[C@@H]3COP(=O)(O)O[C@H]3[C@H]2O)c(=O)[nH]1` is reported as 2.07 ± 0.32 (Cone cGMP-gated channel (Morone saxatilis, UniProt Q3I0N1+Q3I0N2); channel current, agonist, suction electrode; cone outer segments; with: 0.5 µM Ca2+).
For `CC[C@H](C)[C@H](NC(=O)[C@@H]1CCCN1C(=O)[C@H](CC(C)C)NC(=O)[C@H](Cc1ccccc1)NC(=O)[C@H](CCC(=O)O)NC(=O)CNC(=O)[C@@H](NC(=O)[C@H](CCC(=O)O)NC(=O)[C@@H]1CCCN1C(=O)[C@H](CC(=O)O)NC(=O)[C@H](CC(C)C)NC(=O)[C@H](CCC(N)=O)NC(=O)[C@H](CC(C)C)NC(=O)[C@H](CCC(N)=O)NC(=O)[C@H](C)NC(=O)[C@H](Cc1ccccc1)NC(C)=O)[C@@H](C)O)C(=O)N[C@@H](CCC(N)=O)C(=O)N1CCC[C@H]1C(=O)N[C@@H](C)C(=O)N[C@@H](CCC(N)=O)C(N)=O`, the binding stoichiometry was 1.04 (KEAP1 Kelch domain; ITC; concentration not given).
For `Nc1ncnc2c1ncn2[C@@H]1O[C@H](COP(=O)(O)CP(=O)(O)OP(=O)(O)O)[C@@H](O)[C@H]1O`, the specific binding was 30.5 CCPM and 52 CCPM (P2X purinoceptor 1 (P2RX1, Homo sapiens, UniProt P51575, R292A); saturation binding; HEK293; 13 nM).
`O=c1nc(SCc2cc(F)cc(C(F)(F)F)c2)nc(SCc2ccc3nc(Cl)ccc3c2)[nH]1` — result for “ATP hydrolysis rate”: 0.166 µM/min and 0.249 µM/min (TOP2A; ATPase activity; 15.6 µM, with: ATP 0.025 mM).
`O=C(O)C1CCCNC1` (stereo not drawn) — result for “normalised MST signal”: -0.0944 (SLC6A6 (Homo sapiens, UniProt P31641, Y138A); binding, microscale thermophoresis; 30.5 nM, room temperature, with: 50 nM labelled protein; higher = more binding).
The normalized current of `Nc1ncnc2c1ncn2[C@@H]1O[C@H](COP(=O)(O)OP(=O)(O)OP(=O)(O)O)[C@@H](O)[C@H]1O` is reported as 1 (P2X purinoceptor 7 (P2rx7, Rattus norvegicus, UniProt Q64663, I214G); ion current, agonist, two-electrode voltage clamp; Xenopus laevis oocytes; 2700 µM; reference: highest concentration response).
For `COc1cc(NC(=O)c2ccccn2)ccc1/N=N/c1ccccc1Cl`, the activation was 92.5% (GRM8 (Homo sapiens, UniProt O00222); positive allosteric modulator, IP accumulation; HEK293; 30 µM, in the dark, with: low-dose orthosteric agonist).
`Cn1cc(-c2ccnc3ccccc23)c(-c2ccccn2)n1` gave a selectivity ratio of 1 (TGFBR1 (Homo sapiens, UniProt P36897); reference: IC50 on target over Yck2).
`CC(=C/C(=O)O)/C=C/C=C(\C)C1C=C2C(C)(C)CCCC2(C)O1` (stereo not drawn): “plasma membrane localization” 0 (Rhodopsin (RHO, Homo sapiens, UniProt P08100, P23H); immunostaining, measured: opsin; COS-7 transfected; 0.05 µM, unit not given; reference: surface over total stained cells).
`CCCCC[C@@H]1OC(=O)[C@@H](C)N(C)C(=O)[C@H](CCCCC)OC(=O)[C@@H](C)N(C)C(=O)[C@H](CC(=O)O)OC(=O)[C@@H](C)N(C)C(=O)[C@H](CCCCC)OC(=O)[C@@H](C)N(C)C1=O`: “closed dwell time constant T1” 2 ± 0.8 ms (ryanodine receptor 2 (Sus scrofa, UniProt A0A5G2R1W3); single-channel gating, planar lipid bilayer; 50 µM, pCa 7, porcine).
`NC(=O)NOCCCCCCCCCCCC[P+](c1ccccc1)(c1ccccc1)c1ccccc1.O=C([O-])C(F)(F)F`: “oxygen consumption rate” 32.5 ± 2.39% (MT-CYB/UQCRFS1; complex III-dependent respiration, Seahorse XF96; HCT-116; 5 µM, 24 h; reference: control).
Under “covalent adduct formation”, `CCCC(C)N1CCC(N(Cc2ccccc2NC(=O)CCl)C(=O)Nc2cccc(C(F)(F)F)c2)CC1` (stereo not drawn) is recorded as 10% (DCN1-like protein 1 (Homo sapiens, UniProt Q96GG9); covalent binder, LC-TOF mass spectrometry; 60 µM, overnight, 4 °C, with: DCN1-like protein 1 30 µM).
Under “oxygen consumption rate”, `NC(=O)NO` is recorded as 93.1 ± 5.34% (MT-CYB/UQCRFS1; complex III-dependent respiration, Seahorse XF96; HCT-116; 1000 µM, 24 h; reference: control).
The Hill coefficient of `CN(C)C(=O)C(CCN1CCC(O)(c2ccc(Cl)cc2)CC1)(c1ccccc1)c1ccccc1` is reported as 0.777 ± 0.071 (Calcium-activated potassium channel subunit alpha-1, with LRRC26 γ1 subunit (KCNMA1, Homo sapiens, UniProt Q12791); BK channel conductance, inside-out patch clamp; BKα/γ1, Vm 110 mV, nominally Ca2+-free).
Under “share of total products”, `O=C1Nc2ccc(Br)cc2C1O` (stereo not drawn) is recorded as 3.8% (Dehaloperoxidase B ferric; product, HPLC; with: 5-bromoindole 500 µM, H2O2 1000 µM).
`Nc1ncnc2c1ncn2[C@@H]1O[C@H](COP(=O)(O)OP(=O)(O)OP(=O)(O)O)[C@@H](O)[C@H]1O` has a Kia of 241 µM (hexokinase, yeast; substrate; pH 8.0, 25 °C, MgCl2 1.5 mM, with: glucose varied).
The Emax of `O=C(O)CCCc1cc2cc(Cl)ccc2n1S(=O)(=O)c1ccc2ncsc2c1` is reported as 37% (Peroxisome proliferator-activated receptor alpha (Rattus norvegicus, UniProt P37230); receptor activation, agonist; species rat; reference: internal control agonist).
The Hill slope of `Cc1ccc(C)n1-c1sccc1C(=O)O` is reported as -0.8 (Protein lin-28 homolog A).
`CSCC[C@H](NC(=O)[C@H](CCC(N)=O)NC(=O)[C@H](CC(C)C)NC(=O)[C@H](CO)NC(=O)[C@H](CCC(N)=O)NC(=O)[C@H](CC(C)C)NC(=O)[C@H](CCC(=O)O)NC(=O)CNC(=O)[C@@H](NC(=O)[C@H](CO)NC(=O)[C@@H]1CCCN1C(=O)[C@H](CC(=O)O)NC(=O)[C@@H](NC(=O)[C@H](CCC(=O)O)NC(=O)[C@H](CCCCN)NC(=O)[C@H](CO)NC(=O)[C@H](CO)NC(=O)[C@H](CC(C)C)NC(C)=O)C(C)C)[C@@H](C)O)C(=O)N1CCC[C@H]1C(=O)N[C@@H](CCC(=O)O)C(N)=O` gave a TΔS of -10.4 kcal/mol (KEAP1 Kelch domain; binding, ITC; pH 7, 298.15 K).
`CC1=C(/C=C/C(C)=C/C=C/C(C)=C/C=C/C=C(C)/C=C/C=C(C)/C=C/C2=C(C)CCCC2(C)C)C(C)(C)CCC1` — result for “number of binding sites”: 1.41 (Beta-lactoglobulin (LGB, Bos taurus, UniProt P02754); fluorescence quenching; concentration not given, 303 K).
The relaxed DNA of `O=c1nc(SCc2cc(F)cc(C(F)(F)F)c2)nc(SCc2csc3ccc(Cl)cc23)[nH]1` is reported as 6.8% (TOP2A; DNA relaxation; 31.25 µM, replicate 2).
`CCN1CCC[C@H]1CNC(=O)c1c(O)c(Cl)cc(Cl)c1OC` — result for “log2 fold change”: 0.415 (G-protein coupled receptor 62 (GPR62, Homo sapiens, UniProt Q9BZJ7); β-arrestin recruitment, TANGO luminescence, measured: GPR62; concentration not given; reference: basal luminescence).
